{"data": "Measurements collected from several papers", "CTSL": "Procathepsin L (CTSL, Homo sapiens, UniProt P07711)", "PDGFRB": "Platelet-derived growth factor receptor beta (PDGFRB, Homo sapiens, UniProt P09619)", "KDR": "Vascular endothelial growth factor receptor 2 (KDR, Homo sapiens, UniProt P35968)", "NMBR": "Neuromedin-B receptor (NMBR, Homo sapiens, UniProt P28336)", "note": "Protocols differ between the studies behind these lines. ± marks the error that the study gave."}
{"Compound": "CC(C)CCCN(Cc1ccc(F)cc1)c1nc(C#N)nc(N2CCOCC2)n1", "target": "CTSL", "test": "enzyme activity, inhibitor, fluorescence", "IC50": "328 nM"}
{"Compound": "Cc1ccc(NC(=O)CNS(=O)(=O)c2nc(-c3ccc(OC(F)(F)F)cc3)cc(C(F)(F)F)n2)cc1", "target": "WRN (Homo sapiens, UniProt Q14191)", "test": "ATPase activity, inhibitor, ADP-Glo", "conditions": "with: ATP 60 µM", "IC50": "225 nM"}
{"Compound": "OC[C@H]1O[C@@H](Sc2ccccc2)[C@H](O)[C@@H](O)[C@@H]1O", "target": "SLC5A1 (Homo sapiens, UniProt P13866)", "test": "transporter uptake, inhibitor, radiometric", "IC50": "30000 nM"}
{"Compound": "NOCC(=O)O", "target": "CBS (Homo sapiens, UniProt P35520)", "test": "enzyme activity, inhibitor, fluorescence", "IC50": "~3000 nM"}
{"Compound": "O=C(O)CCCCC(=O)NNC(=O)c1ccccn1", "target": "Egl nine homolog 1 (EGLN1, Homo sapiens, UniProt Q9GZT9)", "test": "inhibitor, AlphaScreen", "conditions": "bimodal curve, rough estimate, with: 2 µM 2-oxoglutarate", "IC50": "> 300000 nM"}
{"Compound": "NC(=O)c1ccc(C(=O)NOCc2ccc(Sc3cccc(Cl)c3)c(C(F)(F)F)c2)cc1", "target": "SIRT6 (Homo sapiens, UniProt Q8N6T7)", "test": "enzyme activity, inhibitor, fluorescence", "IC50": "980 nM"}
{"Compound": "COc1cc2nccc(Oc3ccc(NC(=S)NC4CC4)c(Cl)c3)c2cc1C(=O)N1CCCCC1", "target": "PDGFRB", "IC50": "1050 nM"}
{"Compound": "O=C(NCCc1ccc(OS(=O)(=O)O)c(Br)c1)/C(Cc1ccc(O)c(Br)c1)=N/O", "target": "Ryanodine receptor 1, with FKBP12 (RYR1, Oryctolagus cuniculus, UniProt P11716)", "test": "binding, antagonist", "test system": "rabbit skeletal muscle SR vesicles", "conditions": "3.5 h, pH 7.4, 37 °C, with: [3H]ryanodine 1 nM", "IC50": "13000 nM"}
{"Compound": "C[C@](C(=O)NC1CCC(F)(F)CC1)(c1cncnc1)N(C(=O)[C@H](F)Cl)c1ccc(OC(F)(F)F)cc1", "target": "Cytochrome P450 2D6 (CYP2D6, Homo sapiens, UniProt P10635)", "test": "enzyme activity, inhibitor", "conditions": "10 (unit not given)", "IC50": "32800 nM"}
{"Compound": "N=C(N)NCCC[C@@H]1NC(=O)[C@H](CCCCNC(=O)[C@H]2O[C@@H](CNC(=O)COCCOCCn3cc(CNC(=O)CC[C@H](NC(=O)c4ccc(NN=Cc5ccccc5S(=O)(=O)O)nc4)C(=O)NCc4cn(CCOCCOCC(=O)NC[C@@H]5O[C@H](C(=O)NCCCC[C@@H]6NC(=O)[C@@H](Cc7ccccc7)NC(=O)[C@H](CC(=O)O)NC(=O)CNC(=O)[C@H](CCCNC(=N)N)NC6=O)[C@H](O)[C@H](O)[C@H]5O)nn4)nn3)[C@H](O)[C@@H](O)[C@H]2O)NC(=O)[C@@H](Cc2ccccc2)NC(=O)[C@H](CC(=O)O)NC(=O)CNC1=O", "target": "Integrin alpha-V/beta-3 (Homo sapiens, UniProt P05106+P06756)", "test": "ligand displacement, radioligand", "conditions": "pH 7.4", "IC50": "20 nM"}
{"Compound": "CNCCCN1c2ccccc2CCc2ccc(Cl)cc21", "target": "E3 ubiquitin-protein ligase NEDD4, HECT domain (Homo sapiens, UniProt P46934)", "test": "ubiquitination, inhibitor, TR-FRET", "conditions": "1 h preincubation", "IC50": "> 100000 nM"}
{"Compound": "O=c1[nH]sc2ccccc12", "target": "HDAC10 (Homo sapiens, UniProt Q969S8)", "test": "enzyme activity, inhibitor", "IC50": "> 10000 nM"}
{"Compound": "CCC(c1nnnn1Cc1cccs1)N1CCC(c2nc3cc(N)cc(F)c3s2)CC1 (centres unmarked)", "target": "Deoxyribonuclease-1 (DNASE1, Bos taurus, UniProt P00639)", "test": "enzyme activity, inhibitor, fluorescence DNA degradation", "conditions": "pH 7.5, with: FITC-labelled DNA substrate", "IC50": "77000 nM"}
{"Compound": "COc1cc2nccc(Oc3ccc(NC(=S)Nc4ccccc4)c(Cl)c3)c2cc1C(N)=O", "target": "KDR", "IC50": "74.1 nM"}
{"Compound": "CSCC[C@H](NC(=O)[C@H](Cc1ccccc1)NC(=O)[C@H](CO)NC(=O)CNC(=O)[C@@H](NC(=O)[C@H](C)NC(=O)[C@H](Cc1c[nH]c2ccccc12)NC(=O)[C@H](CC(C)C)NC(=O)[C@@H]1CCC(=O)N1)C(C)C)C(N)=O", "target": "NMBR", "test": "NMBR activity, cell-based", "IC50": "1 to 3 nM"}
{"Compound": "O=C(O)c1ccc(O)cc1", "target": "MAL12 (Saccharomyces cerevisiae S288c, UniProt P53341)", "test": "enzyme activity, inhibitor, absorbance", "IC50": "> 100000 nM"}
{"Compound": "CCn1c(-c2cc(NC(=O)c3cnccn3)n[nH]2)cc2ccccc21", "target": "CSNK2A2 (Homo sapiens, UniProt P19784)", "IC50": "1200 ± 26 nM"}
{"Compound": "COCC1CN(C2CCN(c3cc(OC)c(Nc4ncc(Br)c(Nc5ccc6c(c5P(C)(C)=O)OCCO6)n4)cc3C)CC2)C1", "target": "EGFR (Homo sapiens, UniProt P00533, T790M)", "test": "enzyme activity, inhibitor, TR-FRET", "IC50": "< 1.5 nM"}
{"Compound": "COc1cc2nccc(Oc3ccc(NC(=S)NCCC#N)c(Cl)c3)c2cc1C(N)=O", "target": "KDR", "IC50": "208 nM"}
{"Compound": "CCc1cnc(NC(=O)c2cc(S(=O)(=O)N3CCOCC3)ccc2N2CCC(F)(F)C2)s1", "target": "Dolichyl-diphosphooligosaccharide--protein glycosyltransferase subunit STT3A, OST complex (Homo sapiens, UniProt P46977)", "test": "N-glycosylation reporter, inhibitor", "IC50": "590 nM"}
{"Compound": "CCOC(=O)C(C(=O)OCC)C(c1ccccc1)(c1ccccc1)c1ccccc1", "target": "KCNN4 (Homo sapiens, UniProt O15554)", "test": "ion current, inhibitor, patch clamp", "IC50": "4000 nM"}
{"Compound": "COc1cc2nccc(Oc3ccc(NC(=S)NC4CC4)c(Cl)c3)c2cc1C#N", "target": "PDGFRB", "IC50": "504 nM"}
{"Compound": "N#Cc1cnc2sc(C(=O)O)cc2c1N1CCc2[nH]nc(C(=O)N[C@@H](CC(=O)NCCOCCN3CCOCC3)c3cccc(Br)c3)c2C1", "target": "Interleukin-1 receptor-like 2 (IL1RL2, Homo sapiens, UniProt Q9HB29)", "test": "antagonist, SEAP reporter", "test system": "HEK-Blue IL-36R", "conditions": "6 h, with: 0.01 ng/mL IL-36γ", "IC50": "6780 nM"}
{"Compound": "COc1cc2nccc(Oc3ccc(NC(=S)Nc4ccc(F)cc4)c(Cl)c3)c2cc1C(N)=O", "target": "PDGFRB", "IC50": "24.7 nM"}
{"Compound": "CC1=C(C2=C(C)C(=O)c3c(cc(O)c(O)c3C(C)C)C2=O)C(=O)c2cc(O)c(O)c(C(C)C)c2C1=O (racemic)", "target": "Bcl-2-related protein A1 (Homo sapiens, UniProt Q16548)", "test": "ligand displacement, FP", "IC50": "227 nM"}
{"Compound": "CC(C)C[C@@H](CN[C@@H](Cc1ccc(Cl)cc1)C(N)=O)NC(=O)[C@H](Cc1c[nH]cn1)NC(=O)CNC(=O)[C@@H](NC(=O)[C@H](C)NC(=O)[C@H](Cc1c[nH]c2ccccc12)NC(=O)[C@H](CCC(N)=O)NC(=O)[C@H](N)Cc1ccccc1)C(C)C", "target": "NMBR", "test": "inositol phosphate generation, antagonist", "test system": "NCI-H1299", "conditions": "with: neuromedin B", "IC50": "> 10000 nM"}
{"Compound": "COC(=O)c1ccccc1CN(CCC(C)C)c1nc(C#N)nc(N2CCOCC2)n1", "target": "CTSL", "test": "enzyme activity, inhibitor, fluorescence", "IC50": "91 nM"}
{"Compound": "CC(C)CCn1c(OC2CN(C(=O)C3CC3)C2)nc2c1c(=O)n(C)c(=O)n2C", "target": "ALDH1A1 (Homo sapiens, UniProt P00352)", "IC50": "537 ± 62 nM"}
{"Compound": "O=S(=O)(Cc1ccccc1Cl)Nc1ccc(Oc2ncccc2-c2ccnc(N[C@H]3CCCNC3)n2)cc1F", "target": "Serine/threonine-protein kinase/endoribonuclease IRE2, RNase domain (ERN2, Homo sapiens, UniProt Q76MJ5)", "test": "RNase activity, inhibitor", "conditions": "with: XBP1 mini-substrate", "IC50": "50 ± 2 nM"}
{"Compound": "COc1ccc(O[C@@H]2O[C@H](COS(=O)(=O)O)[C@H](OS(=O)(=O)O)[C@H](O[C@@H]3O[C@H](C(=O)OCc4ccccc4)[C@@H](O[C@@H]4O[C@H](COS(=O)(=O)O)[C@H](OS(=O)(=O)O)[C@H](O[C@@H]5O[C@H](C(=O)OCc6ccccc6)[C@@H](OS(=O)(=O)O)[C@H](OCc6ccccc6)[C@H]5OC(=O)c5ccccc5)[C@H]4NC(=O)C(F)(F)F)[C@H](OCc4ccccc4)[C@H]3OC(=O)c3ccccc3)[C@H]2NC(=O)C(F)(F)F)cc1", "target": "Midkine (Homo sapiens, UniProt P21741)", "test": "heparin hexasaccharide binding, inhibitor, fluorescence polarisation competition", "conditions": "with: fluorescein-labelled hexasaccharide probe", "IC50": "3800 nM"}
{"Compound": "Cc1ccc(CNC(=O)C(CCc2ccccc2)NC(=O)C(NC(=O)Cc2cccc(Oc3ccccc3)c2)C(C)O)cc1 (centres unmarked)", "target": "PSMB6/PSMB7 (Homo sapiens, UniProt P28072+Q99436)", "test": "inhibitor", "IC50": "48000 nM"}
{"Compound": "COC(=O)C[C@H](NC(=O)[C@H](C)NC(=O)[C@@H](NC(=O)OCc1ccccc1)C(C)C)C(=O)CF", "target": "Caspase-4 (CASP4, Homo sapiens, UniProt P49662)", "test": "enzyme activity, inhibitor, fluorescence", "IC50": "320 nM"}
{"Compound": "O=C1C2=C(Nc3ccccc3SC2C2CCCCC2)c2ccccc21 (racemic)", "target": "Cytochrome b (MT-CYB, Homo sapiens, UniProt P00156)", "test": "enzyme activity, inhibitor", "IC50": "> 5000 nM"}
{"Compound": "C=CC(=O)Nc1cc(Nc2nccc(-n3ccc4nc(OC)ccc43)n2)c(OC)cc1N(C)CCN(C)C", "target": "HTR2A (Homo sapiens, UniProt P28223)", "test": "β-arrestin recruitment, antagonist", "IC50": "1310 nM"}
{"Compound": "CC(C)Oc1cc(NC(=O)[C@H](Cc2ccccc2)NC(=O)c2ccc(N)c(OCc3ccccc3)c2)ccc1C(=O)NCC(=O)O", "target": "MCL1 (Homo sapiens, UniProt Q07820)", "test": "fluorescence anisotropy competition", "conditions": "pH 7.50, with: FITC-NOXA B peptide", "IC50": "> 100000 nM"}
{"note": "Repeated from above:"}
{"Compound": "COC(=O)C[C@H](NC(=O)[C@H](C)NC(=O)[C@@H](NC(=O)OCc1ccccc1)C(C)C)C(=O)CF", "target": "Caspase-4 (CASP4, Homo sapiens, UniProt P49662)", "test": "enzyme activity, inhibitor, fluorescence", "IC50": "320 nM"}
{"Compound": "CC(C)C[C@@H](CN[C@@H](Cc1ccc(Cl)cc1)C(N)=O)NC(=O)[C@H](Cc1c[nH]cn1)NC(=O)CNC(=O)[C@@H](NC(=O)[C@H](C)NC(=O)[C@H](Cc1c[nH]c2ccccc12)NC(=O)[C@H](CCC(N)=O)NC(=O)[C@H](N)Cc1ccccc1)C(C)C", "target": "NMBR", "test": "inositol phosphate generation, antagonist", "test system": "NCI-H1299", "conditions": "with: neuromedin B", "IC50": "> 10000 nM"}
{"Compound": "COc1cc2nccc(Oc3ccc(NC(=S)Nc4ccc(F)cc4)c(Cl)c3)c2cc1C(N)=O", "target": "PDGFRB", "IC50": "24.7 nM"}
{"Compound": "O=C(O)CCCCC(=O)NNC(=O)c1ccccn1", "target": "Egl nine homolog 1 (EGLN1, Homo sapiens, UniProt Q9GZT9)", "test": "inhibitor, AlphaScreen", "conditions": "bimodal curve, rough estimate, with: 2 µM 2-oxoglutarate", "IC50": "> 300000 nM"}
